Measurements gathered from unrelated publications.
Protocols differ between the studies behind these lines. ± gives the spread as reported.
CXCR4: C-X-C chemokine receptor type 4 (CXCR4, Homo sapiens, UniProt P61073)
UniProt P61073, sequence (whole entry, looked up): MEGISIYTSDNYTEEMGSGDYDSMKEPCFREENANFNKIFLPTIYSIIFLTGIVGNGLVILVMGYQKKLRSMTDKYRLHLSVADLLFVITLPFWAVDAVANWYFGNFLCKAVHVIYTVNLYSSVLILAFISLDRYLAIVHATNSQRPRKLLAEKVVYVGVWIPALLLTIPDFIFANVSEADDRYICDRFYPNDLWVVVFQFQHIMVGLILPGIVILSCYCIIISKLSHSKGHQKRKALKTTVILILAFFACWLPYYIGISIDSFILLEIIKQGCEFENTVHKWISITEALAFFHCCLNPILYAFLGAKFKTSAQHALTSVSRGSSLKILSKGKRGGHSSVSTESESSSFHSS
CA9: Carbonic anhydrase 9 (CA9, Homo sapiens, UniProt Q16790)
UniProt P06756, sequence (whole entry, looked up): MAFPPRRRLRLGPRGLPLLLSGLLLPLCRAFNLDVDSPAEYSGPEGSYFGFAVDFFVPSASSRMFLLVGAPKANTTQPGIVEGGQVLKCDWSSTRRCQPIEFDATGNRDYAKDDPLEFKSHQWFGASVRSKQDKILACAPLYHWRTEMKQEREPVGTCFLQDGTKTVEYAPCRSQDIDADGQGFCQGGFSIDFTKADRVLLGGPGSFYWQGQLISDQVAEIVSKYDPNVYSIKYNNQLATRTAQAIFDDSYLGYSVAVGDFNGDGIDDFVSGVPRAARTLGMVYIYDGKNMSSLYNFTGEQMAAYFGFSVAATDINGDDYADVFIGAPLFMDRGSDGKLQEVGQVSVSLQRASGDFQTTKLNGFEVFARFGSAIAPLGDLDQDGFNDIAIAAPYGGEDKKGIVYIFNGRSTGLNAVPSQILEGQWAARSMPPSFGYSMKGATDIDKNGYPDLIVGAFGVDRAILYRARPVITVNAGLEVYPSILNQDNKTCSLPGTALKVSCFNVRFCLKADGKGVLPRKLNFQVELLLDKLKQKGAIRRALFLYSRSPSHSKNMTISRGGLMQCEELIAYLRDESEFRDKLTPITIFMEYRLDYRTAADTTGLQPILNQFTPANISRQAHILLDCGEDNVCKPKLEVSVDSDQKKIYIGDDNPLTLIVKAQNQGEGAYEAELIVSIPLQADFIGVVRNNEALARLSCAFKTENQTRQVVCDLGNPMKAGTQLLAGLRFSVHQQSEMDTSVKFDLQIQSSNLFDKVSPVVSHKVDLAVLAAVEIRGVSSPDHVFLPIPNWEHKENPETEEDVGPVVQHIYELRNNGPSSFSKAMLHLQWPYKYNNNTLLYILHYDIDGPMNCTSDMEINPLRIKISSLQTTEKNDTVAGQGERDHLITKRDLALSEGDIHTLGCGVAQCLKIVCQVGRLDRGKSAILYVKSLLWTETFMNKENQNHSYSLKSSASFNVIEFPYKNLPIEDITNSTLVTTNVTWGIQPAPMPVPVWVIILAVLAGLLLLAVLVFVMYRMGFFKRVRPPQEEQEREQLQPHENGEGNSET
UniProt Q9QXD6, sequence (whole entry, looked up): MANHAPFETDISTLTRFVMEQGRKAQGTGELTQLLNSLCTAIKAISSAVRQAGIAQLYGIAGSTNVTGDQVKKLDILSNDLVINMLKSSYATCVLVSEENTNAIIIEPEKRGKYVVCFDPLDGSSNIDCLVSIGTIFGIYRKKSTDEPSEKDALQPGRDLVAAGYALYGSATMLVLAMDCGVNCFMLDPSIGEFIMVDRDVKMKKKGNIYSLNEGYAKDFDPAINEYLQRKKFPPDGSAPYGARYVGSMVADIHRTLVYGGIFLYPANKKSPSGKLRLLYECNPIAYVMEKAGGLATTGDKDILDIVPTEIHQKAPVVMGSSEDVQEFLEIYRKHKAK
UniProt P18084, sequence (whole entry, looked up): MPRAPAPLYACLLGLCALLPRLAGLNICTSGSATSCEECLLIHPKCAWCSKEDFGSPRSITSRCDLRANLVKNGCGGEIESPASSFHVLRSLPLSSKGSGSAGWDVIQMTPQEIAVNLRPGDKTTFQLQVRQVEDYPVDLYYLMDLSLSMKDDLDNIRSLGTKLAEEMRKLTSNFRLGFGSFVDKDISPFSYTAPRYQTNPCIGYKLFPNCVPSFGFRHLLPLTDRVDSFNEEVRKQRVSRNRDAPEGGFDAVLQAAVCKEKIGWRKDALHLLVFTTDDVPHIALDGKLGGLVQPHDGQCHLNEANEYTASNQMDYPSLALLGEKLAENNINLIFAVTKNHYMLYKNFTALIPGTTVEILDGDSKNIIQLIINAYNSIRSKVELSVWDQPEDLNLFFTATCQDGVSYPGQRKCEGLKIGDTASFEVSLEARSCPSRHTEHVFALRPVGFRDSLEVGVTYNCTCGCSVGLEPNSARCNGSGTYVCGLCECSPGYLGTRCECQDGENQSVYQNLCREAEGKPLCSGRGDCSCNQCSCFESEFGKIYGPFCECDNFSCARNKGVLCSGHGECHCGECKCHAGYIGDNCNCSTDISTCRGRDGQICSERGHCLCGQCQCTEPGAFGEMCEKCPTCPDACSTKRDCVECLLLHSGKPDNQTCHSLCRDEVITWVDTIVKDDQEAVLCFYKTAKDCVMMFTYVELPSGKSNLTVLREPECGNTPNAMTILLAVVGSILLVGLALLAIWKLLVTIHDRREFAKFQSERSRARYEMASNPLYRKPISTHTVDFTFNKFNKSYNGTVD
UniProt Q8NCG7, sequence (whole entry, looked up): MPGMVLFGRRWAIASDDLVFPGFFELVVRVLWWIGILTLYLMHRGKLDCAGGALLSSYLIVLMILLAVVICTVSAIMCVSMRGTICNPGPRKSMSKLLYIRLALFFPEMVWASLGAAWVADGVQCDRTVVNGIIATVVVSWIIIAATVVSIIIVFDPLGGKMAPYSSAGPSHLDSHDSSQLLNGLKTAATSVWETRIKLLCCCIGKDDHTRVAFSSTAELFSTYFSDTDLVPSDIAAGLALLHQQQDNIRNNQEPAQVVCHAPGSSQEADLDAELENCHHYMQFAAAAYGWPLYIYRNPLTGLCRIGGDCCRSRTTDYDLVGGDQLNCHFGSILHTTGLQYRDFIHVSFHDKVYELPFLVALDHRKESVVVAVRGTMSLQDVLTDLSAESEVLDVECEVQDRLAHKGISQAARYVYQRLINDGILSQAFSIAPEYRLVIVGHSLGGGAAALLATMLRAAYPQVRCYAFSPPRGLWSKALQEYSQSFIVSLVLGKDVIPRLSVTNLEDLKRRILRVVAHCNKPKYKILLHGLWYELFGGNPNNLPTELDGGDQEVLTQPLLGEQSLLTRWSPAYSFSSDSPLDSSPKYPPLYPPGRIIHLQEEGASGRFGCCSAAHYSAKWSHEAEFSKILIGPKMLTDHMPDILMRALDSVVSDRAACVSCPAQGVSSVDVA
UniProt Q9NZQ7, sequence (whole entry, looked up): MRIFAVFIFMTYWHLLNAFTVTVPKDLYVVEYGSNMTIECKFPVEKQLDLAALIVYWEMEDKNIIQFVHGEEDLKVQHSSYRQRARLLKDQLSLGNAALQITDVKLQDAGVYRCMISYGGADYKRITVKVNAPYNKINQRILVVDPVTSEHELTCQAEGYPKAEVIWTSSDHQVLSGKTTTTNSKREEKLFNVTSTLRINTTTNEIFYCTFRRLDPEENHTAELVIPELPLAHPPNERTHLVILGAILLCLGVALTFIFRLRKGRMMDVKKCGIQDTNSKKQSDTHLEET
UniProt P08183, sequence (whole entry, looked up): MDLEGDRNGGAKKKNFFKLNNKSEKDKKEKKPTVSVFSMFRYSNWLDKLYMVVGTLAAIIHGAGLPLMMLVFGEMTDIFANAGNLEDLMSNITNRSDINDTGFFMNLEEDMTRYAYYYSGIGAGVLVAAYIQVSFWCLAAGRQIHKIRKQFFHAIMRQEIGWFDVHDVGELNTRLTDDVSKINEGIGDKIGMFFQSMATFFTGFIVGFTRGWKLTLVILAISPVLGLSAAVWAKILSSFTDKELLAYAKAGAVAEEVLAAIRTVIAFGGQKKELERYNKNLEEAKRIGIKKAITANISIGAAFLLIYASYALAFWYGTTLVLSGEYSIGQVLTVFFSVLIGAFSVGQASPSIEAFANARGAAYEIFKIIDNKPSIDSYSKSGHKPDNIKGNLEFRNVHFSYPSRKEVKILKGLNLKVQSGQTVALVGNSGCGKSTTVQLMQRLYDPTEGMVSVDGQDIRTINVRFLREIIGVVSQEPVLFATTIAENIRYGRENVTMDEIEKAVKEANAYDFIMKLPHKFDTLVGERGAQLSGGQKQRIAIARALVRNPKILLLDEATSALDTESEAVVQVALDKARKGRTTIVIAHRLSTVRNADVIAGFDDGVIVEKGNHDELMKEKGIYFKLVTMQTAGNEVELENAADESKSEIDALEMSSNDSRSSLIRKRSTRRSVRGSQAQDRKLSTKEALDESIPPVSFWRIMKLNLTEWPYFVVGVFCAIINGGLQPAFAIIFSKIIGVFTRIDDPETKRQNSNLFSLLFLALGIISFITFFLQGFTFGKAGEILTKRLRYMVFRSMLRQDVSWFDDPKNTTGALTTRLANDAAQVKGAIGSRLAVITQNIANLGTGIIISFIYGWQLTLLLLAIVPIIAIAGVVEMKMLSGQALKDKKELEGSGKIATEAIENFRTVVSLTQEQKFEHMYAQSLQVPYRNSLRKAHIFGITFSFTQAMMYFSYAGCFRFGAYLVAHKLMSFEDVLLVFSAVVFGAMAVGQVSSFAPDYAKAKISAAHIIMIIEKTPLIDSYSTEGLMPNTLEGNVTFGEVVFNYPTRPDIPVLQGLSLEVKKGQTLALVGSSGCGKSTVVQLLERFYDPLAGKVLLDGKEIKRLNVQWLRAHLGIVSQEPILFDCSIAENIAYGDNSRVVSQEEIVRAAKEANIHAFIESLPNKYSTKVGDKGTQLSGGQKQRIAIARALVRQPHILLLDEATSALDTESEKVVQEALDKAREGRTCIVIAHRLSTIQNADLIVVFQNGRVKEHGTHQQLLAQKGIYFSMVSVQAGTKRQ

`CCc1noc(CN(C)Cc2cn(-c3ccccc3)nc2-c2ccc(Cl)cc2)n1` gave an IC50 of 16000 nM (CXCR4; β-arrestin recruitment, antagonist).
`C[C@@H](Nc1c(-c2c(F)cc(C#N)cc2F)c(Cl)nc2ncnn12)C(C)(C)C` gave an IC50 of greater than 30000 nM (ATP-dependent translocase ABCB1 (ABCB1, Homo sapiens, UniProt P08183); inhibitor).
With `Nc1ncnc2c1ncn2C1OC(COP(=O)(O)O)C(O)C1O` (centres unmarked) the IC50 was 13400 nM (Fructose-1,6-bisphosphatase 1 (Mus musculus, UniProt Q9QXD6); enzyme activity, inhibitor).
The IC50 of `Nn1c(-c2cccs2)n[nH]c1=S` is reported as 350 ± 160 nM (CUGBP Elav-like family member 1 (CELF1, Homo sapiens, UniProt Q92879, del215-384); CELF1-RNA binding, inhibitor, fluorescence polarization; 20 nM CELF1, together with: 10 nM RNA).
The IC50 of `Cc1c(COc2cc(OCc3cccc(C#N)c3)c(CNCCO)cc2Cl)cccc1-c1cccc(OCCCCCCC(=O)NO)c1` is reported as 109 nM (Programmed cell death 1 ligand 1, with PD-1 (CD274, Homo sapiens, UniProt Q9NZQ7); PD-1/PD-L1 binding, inhibitor, HTRF).
`COc1ccc(-c2ccc(-c3cn(C(=O)N4CCCCC4c4ccccc4)nn3)cc2)cc1` (centres unmarked) has an IC50 of greater than 10000 nM (Diacylglycerol lipase-beta (Homo sapiens, UniProt Q8NCG7); enzyme activity, inhibitor).
`Cc1nn(-c2cccc(N)c2)c(=O)c2cnc(Nc3ccc(N4CCNCC4)cc3)nc12` has an IC50 of greater than 10000 nM (Homeodomain-interacting protein kinase 2 (HIPK2, Homo sapiens, UniProt Q9H2X6); kinase activity, inhibitor, SelectScreen kinase profiling).
The IC50 of `Cc1cc(C(=O)Nc2ccc(NC(=O)c3ccco3)cc2)c(C)n1Cc1ccc(S(N)(=O)=O)cc1` is reported as 14.1 nM (CA9; enzyme activity, inhibitor).
`CN1C(=O)[C@@H](Cc2ccc(O)cc2)NC(=O)CNC(=O)[C@H](Cc2ccc3ccccc3c2)NC(=O)[C@H](CCCNC(=N)N)NC(=O)[C@H]1CCCNC(=O)c1ccc(CNC(=O)CN2CCN(CC(=O)O)CCN(CC(=O)O)CCN(CC(=O)O)CC2)cc1` has an IC50 of 150 nM (CXCR4).
With `CC(NCC1(c2ccc(Br)cc2)CCOCC1)C(=O)Nc1ccc(S(N)(=O)=O)cc1` (centres unmarked) the IC50 was 19.1 nM (CA9; enzyme activity, inhibitor).
`CS(=O)(=O)c1ccc(-c2cc(Cl)c(C(=O)N[C@@H](CNC(=O)CNC(=O)c3cccc(NC(=N)N)c3)C(=O)O)c(Cl)c2)cc1` gave an IC50 of 100000 nM (Integrin alpha-V/beta-5 (Homo sapiens, UniProt P06756+P18084); cell adhesion, inhibitor; SW480; together with: vitronectin 1 µg/mL).

Excerpt of the above:
`COc1ccc(-c2ccc(-c3cn(C(=O)N4CCCCC4c4ccccc4)nn3)cc2)cc1` (centres unmarked) has an IC50 of greater than 10000 nM (Diacylglycerol lipase-beta (Homo sapiens, UniProt Q8NCG7); enzyme activity, inhibitor).
